Measured values pooled from the literature.
Lines come from different studies, so protocols differ. Values after ≈ are worked out from the molar mass of the structure shown.
4'-phosphopantetheinyl transferase PptT: 4'-phosphopantetheinyl transferase PptT (Mycobacterium tuberculosis, UniProt O33336)
Sequence of UniProt O33336 (whole entry, looked up): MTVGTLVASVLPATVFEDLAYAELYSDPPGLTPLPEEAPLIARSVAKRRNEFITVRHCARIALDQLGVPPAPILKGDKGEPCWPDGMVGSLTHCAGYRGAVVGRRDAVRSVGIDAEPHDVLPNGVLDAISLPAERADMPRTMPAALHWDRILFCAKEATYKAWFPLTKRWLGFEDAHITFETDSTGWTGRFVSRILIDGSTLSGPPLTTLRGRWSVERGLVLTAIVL
Sequence of UniProt Q6XUX3 (whole entry, looked up): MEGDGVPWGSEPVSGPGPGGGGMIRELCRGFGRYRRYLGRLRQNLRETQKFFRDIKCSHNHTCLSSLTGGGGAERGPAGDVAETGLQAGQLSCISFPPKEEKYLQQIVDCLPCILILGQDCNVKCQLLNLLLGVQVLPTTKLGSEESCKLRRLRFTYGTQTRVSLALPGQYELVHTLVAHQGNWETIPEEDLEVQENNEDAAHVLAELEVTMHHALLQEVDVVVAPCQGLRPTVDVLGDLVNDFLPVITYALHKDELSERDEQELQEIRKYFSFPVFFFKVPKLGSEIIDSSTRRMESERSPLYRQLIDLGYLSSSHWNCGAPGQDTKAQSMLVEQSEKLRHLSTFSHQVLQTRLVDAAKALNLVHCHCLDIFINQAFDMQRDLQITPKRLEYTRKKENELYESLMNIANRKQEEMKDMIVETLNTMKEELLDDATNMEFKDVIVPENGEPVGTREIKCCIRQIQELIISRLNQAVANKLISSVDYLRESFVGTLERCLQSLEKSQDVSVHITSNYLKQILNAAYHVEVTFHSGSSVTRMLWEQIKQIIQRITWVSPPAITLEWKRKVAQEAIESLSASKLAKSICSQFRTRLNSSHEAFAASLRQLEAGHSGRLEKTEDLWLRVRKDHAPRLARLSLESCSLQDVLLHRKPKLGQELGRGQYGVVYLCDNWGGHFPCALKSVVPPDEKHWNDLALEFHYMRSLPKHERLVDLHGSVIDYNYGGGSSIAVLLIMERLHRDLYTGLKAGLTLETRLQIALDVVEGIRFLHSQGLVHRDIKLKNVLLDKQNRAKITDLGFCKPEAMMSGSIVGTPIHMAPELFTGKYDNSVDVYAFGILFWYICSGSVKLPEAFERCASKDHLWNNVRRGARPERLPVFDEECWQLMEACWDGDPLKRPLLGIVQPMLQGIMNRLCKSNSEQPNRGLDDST
Sequence of UniProt O76039 (whole entry, looked up): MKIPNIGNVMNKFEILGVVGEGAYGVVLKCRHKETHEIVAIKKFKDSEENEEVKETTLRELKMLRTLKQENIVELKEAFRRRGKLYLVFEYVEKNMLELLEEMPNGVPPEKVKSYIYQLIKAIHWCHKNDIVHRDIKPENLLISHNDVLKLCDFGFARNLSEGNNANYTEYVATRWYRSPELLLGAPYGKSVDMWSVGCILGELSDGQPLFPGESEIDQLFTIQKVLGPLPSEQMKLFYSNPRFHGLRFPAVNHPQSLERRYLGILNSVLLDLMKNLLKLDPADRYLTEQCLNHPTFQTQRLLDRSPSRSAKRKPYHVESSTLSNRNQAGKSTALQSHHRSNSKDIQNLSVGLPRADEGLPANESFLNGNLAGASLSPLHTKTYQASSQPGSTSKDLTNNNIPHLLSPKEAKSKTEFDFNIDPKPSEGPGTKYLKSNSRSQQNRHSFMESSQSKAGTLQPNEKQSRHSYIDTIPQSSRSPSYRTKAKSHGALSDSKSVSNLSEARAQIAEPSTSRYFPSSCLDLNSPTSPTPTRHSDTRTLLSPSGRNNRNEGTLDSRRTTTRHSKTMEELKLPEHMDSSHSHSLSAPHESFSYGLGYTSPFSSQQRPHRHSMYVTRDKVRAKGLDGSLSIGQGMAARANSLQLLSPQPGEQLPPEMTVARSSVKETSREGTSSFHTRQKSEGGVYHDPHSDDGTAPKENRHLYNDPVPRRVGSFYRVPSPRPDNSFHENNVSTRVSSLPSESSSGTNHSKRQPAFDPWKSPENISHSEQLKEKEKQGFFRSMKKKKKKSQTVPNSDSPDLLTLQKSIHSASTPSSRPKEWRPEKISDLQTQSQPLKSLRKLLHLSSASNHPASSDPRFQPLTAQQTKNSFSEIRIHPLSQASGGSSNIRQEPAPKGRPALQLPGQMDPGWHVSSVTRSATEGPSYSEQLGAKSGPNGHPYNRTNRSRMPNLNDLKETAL
Sequence of UniProt O15111 (whole entry, looked up): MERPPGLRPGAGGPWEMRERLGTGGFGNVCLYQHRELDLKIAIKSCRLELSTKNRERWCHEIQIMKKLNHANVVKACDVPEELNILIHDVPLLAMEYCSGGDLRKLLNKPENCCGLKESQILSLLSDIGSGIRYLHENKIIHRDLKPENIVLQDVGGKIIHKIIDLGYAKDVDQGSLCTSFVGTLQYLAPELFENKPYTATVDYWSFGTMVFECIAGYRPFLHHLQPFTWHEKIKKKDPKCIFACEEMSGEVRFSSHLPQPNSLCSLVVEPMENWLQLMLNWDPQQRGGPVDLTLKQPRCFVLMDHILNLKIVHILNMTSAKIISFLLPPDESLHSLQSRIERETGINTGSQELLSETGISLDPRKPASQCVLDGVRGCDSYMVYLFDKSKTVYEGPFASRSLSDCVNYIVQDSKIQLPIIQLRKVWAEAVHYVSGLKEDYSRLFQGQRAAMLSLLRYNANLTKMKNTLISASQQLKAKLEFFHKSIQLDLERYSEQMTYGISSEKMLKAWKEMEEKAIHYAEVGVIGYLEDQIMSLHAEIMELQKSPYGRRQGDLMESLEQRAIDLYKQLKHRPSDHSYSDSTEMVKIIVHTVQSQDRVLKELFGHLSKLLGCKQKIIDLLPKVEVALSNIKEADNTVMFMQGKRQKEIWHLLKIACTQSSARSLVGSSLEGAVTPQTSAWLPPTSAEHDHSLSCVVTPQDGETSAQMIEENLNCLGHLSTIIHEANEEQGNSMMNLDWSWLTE
Sequence of UniProt O14976 (whole entry, looked up): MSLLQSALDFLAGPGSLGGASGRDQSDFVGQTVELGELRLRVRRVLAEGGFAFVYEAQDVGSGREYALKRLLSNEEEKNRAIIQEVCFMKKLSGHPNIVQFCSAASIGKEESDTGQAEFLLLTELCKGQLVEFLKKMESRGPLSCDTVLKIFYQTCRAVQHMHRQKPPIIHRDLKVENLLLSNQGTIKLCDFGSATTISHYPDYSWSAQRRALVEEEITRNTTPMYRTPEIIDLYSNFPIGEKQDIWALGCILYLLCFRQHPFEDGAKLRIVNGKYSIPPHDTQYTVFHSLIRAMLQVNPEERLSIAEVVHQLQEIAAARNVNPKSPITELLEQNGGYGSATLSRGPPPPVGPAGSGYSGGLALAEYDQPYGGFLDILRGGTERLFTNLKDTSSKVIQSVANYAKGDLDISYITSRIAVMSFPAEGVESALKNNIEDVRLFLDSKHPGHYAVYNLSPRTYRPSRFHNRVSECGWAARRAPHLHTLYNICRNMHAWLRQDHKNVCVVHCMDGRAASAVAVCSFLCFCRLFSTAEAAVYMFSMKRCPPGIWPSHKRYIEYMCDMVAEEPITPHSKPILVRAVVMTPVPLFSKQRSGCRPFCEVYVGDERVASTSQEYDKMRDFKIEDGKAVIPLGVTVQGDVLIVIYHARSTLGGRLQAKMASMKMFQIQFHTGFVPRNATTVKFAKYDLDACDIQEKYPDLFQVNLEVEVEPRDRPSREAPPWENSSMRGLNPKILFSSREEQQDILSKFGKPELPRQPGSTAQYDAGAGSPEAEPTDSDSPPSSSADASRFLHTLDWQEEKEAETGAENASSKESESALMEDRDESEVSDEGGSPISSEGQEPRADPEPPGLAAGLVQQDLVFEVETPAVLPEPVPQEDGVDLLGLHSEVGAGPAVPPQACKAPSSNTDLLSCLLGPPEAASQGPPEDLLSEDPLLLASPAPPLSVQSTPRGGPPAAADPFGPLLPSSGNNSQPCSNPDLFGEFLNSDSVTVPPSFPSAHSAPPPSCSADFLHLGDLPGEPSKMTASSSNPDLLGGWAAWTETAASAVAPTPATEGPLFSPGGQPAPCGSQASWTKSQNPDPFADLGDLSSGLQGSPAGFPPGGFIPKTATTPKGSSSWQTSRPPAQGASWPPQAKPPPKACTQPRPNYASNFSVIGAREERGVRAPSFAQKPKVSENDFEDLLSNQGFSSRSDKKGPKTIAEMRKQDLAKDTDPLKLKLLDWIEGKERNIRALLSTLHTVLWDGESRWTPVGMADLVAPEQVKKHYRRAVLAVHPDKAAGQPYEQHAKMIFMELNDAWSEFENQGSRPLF

SMILES	target or system	test	system	conditions	quantity	result
COC(=O)c1cc(-c2cccc(NC(=O)Nc3ccccc3C)c2)on1	Acinetobacter baumannii	microbial growth, broth dilution	BAA1605	–	MIC	> 64 µg/mL
COc1ncccc1-c1cnn2ccc(N3CCN(C(=O)OC(C)C)CC3)nc12	CHUK (Homo sapiens, UniProt O15111)	binding, competition with immobilised ligand	–	1 µM	remaining binding	67%
Cn1cc2c3c1C(=O)C(NCCc1ccc(O)cc1)=CC3=NCC2	Babesia duncani	parasite growth, SYBR Green	–	60 h, blood stage	IC50	1.6 µM
CO/C=C(/C(=O)OC)c1ccccc1Oc1cc(Oc2ccccc2C#N)ncn1	Pyricularia grisea	microbial growth	–	–	EC50	> 50 µg/mL
CC(=O)N1CCN(c2ccc(OCC3COC(Cn4ccnc4)(c4ccc(Cl)cc4Cl)O3)cc2)CC1 (stereo not drawn)	Candida albicans	microbial killing, broth dilution	56214	48 h	MFC	> 64 µM
N.N.[Cl][Pt][Cl]	DOHH-2	cell growth or viability, ATP luminescence	–	10 µM, 72 h	inhibition	100%
O=c1cc(CSc2ccc(N=Cc3cccc(O)c3)cc2)occ1O	–	ABTS scavenging, absorbance	–	–	IC50	16.6 µM
COC(=O)c1cc(-c2cccc(NC(=O)Nc3ccc(C)c(Cl)c3)c2)on1	Mycobacteroides abscessus	microbial growth, broth dilution	ATCC19977	48 h	MIC	> 64 µg/mL
CC(C)C[C@H]1NC(=O)[C@H]([C@@H](C)O)NC(=O)[C@@H](CCCN)NC(=O)[C@H](CCCNC(=N)N)NC(=O)[C@@H](Cc2ccccc2)NC1=O	Balamuthia mandrillaris	parasite growth, ATP luminescence	–	–	IC90	> 16 µg/mL
O=c1cc(CSc2ccc(N=Cc3cccc(Cl)c3)cc2)occ1O	–	ABTS scavenging, absorbance	–	–	IC50	77.7 µM
[2H]c1c([2H])c([C@]2([2H])CCCN2C(=O)C(C)(C)Oc2ccc3cn[nH]c3c2)c([2H])c([2H])c1C([2H])([2H])[2H]	DSTYK (Homo sapiens, UniProt Q6XUX3)	binding, competition with immobilised ligand	–	1 µM	remaining binding	93%
O=C1C(NCCc2c[nH]c3ccccc23)=CC2=NCCc3c[nH]c1c32	Babesia duncani	parasite growth, SYBR Green	–	60 h, blood stage	IC50	0.764 µM
O=C(NNc1cccc(Cl)c1)c1nnc(C23CC4CC(CC(C4)C2)C3)o1	Pyricularia grisea	microbial growth	–	–	EC50	> 50 µg/mL
O=c1c2cc(C(F)(F)F)ncc2[nH]c(=S)n1Cc1cccnc1	4'-phosphopantetheinyl transferase PptT	enzyme activity, inhibitor, FP	–	–	IC50	5.78 µM
O=c1cc(CSc2ccc(N=Cc3cccc(Br)c3)cc2)occ1O	–	ABTS scavenging, absorbance	–	–	IC50	3.28 µM
Cn1cc2c3c1C(=O)C(NCCc1ccc(O)cc1)=CC3=[N+](C)CC2	Babesia duncani	parasite growth, SYBR Green	–	60 h, blood stage	IC50	0.0458 µM
CC(C)[C@@H]1NC(=O)[C@@H](CCCN)NC(=O)[C@H]([C@@H](C)O)NC(=O)[C@H](Cc2ccccc2)NC(=O)[C@@H](Cc2ccccc2)NC(=O)[C@H](Cc2ccccc2)NC(=O)[C@@H](CCCN)NC1=O	Balamuthia mandrillaris	parasite growth, ATP luminescence	–	–	IC90	> 16 µg/mL
O=C(NNc1cc(F)ccc1F)c1nnc(CC23CC4CC(CC(C4)C2)C3)o1	Pyricularia grisea	microbial growth	–	50 µg/mL	inhibition	100%

SMILES	target or system	test	system	conditions	quantity	result
Cc1sc2c(c1C)C(c1ccc(Cl)cc1)=N[C@H](CC(=O)OC(C)(C)C)c1nnc(C)n1-2	OCI-Ly1	cell growth or viability, ATP luminescence	–	1 µM, 5 days	viability	168%
Cc1ccc(NNC(=O)c2nnc(CC34CC5CC(CC(C5)C3)C4)o2)cc1	Pyricularia grisea	microbial growth	–	–	EC50	> 50 µg/mL
NCCCC[C@H]1NC(=O)[C@H](Cc2ccccc2)NC(=O)[C@@H](Cc2ccccc2)NC(=O)[C@H](Cc2ccccc2)NC(=O)[C@@H](CCCN)NC(=O)[C@H](CCCN)NC1=O	Balamuthia mandrillaris	parasite growth, ATP luminescence	–	–	IC50	12.6 µM
N#Cc1cc2[nH]c(=S)n(Cc3cccnc3)c(=O)c2cc1Cl	4'-phosphopantetheinyl transferase PptT	enzyme activity, inhibitor, FP	–	–	IC50	1.94 µM
O=C(NNc1cccc(Cl)c1)c1nnc(CC23CC4CC(CC(C4)C2)C3)o1	Pyricularia grisea	microbial growth	–	–	EC50	5.56 µg/mL (≈ 14.4 µM)
CCOC(=O)C1=C(N)N(c2ccc(C(=O)OCC)cc2)C(O)=C(C#N)C12C(=O)Nc1ccccc12 (stereo not drawn)	HepG2	cell growth or viability, MTT	–	1.56 µM, 24 h	viability	88.2%
COc1ccc(Nc2nn3c(-c4ccccc4)ccnc3c2C(=O)Nc2ccc(Cl)cc2)cc1	A549	cell growth or viability, MTT	–	50 µg/mL, 48 h, serum-free	viability	38.3%
CC(C)[C@@H]1NC(=O)[C@@H](CCCCN)NC(=O)[C@H](CCCN)NC(=O)[C@@H](CC(=O)O)NC(=O)[C@H](C)NC(=O)[C@H](Cc2c[nH]c3ccccc23)NC(=O)[C@@H](Cc2c[nH]c3ccccc23)NC1=O	Balamuthia mandrillaris	parasite growth, ATP luminescence	–	–	IC50	> 16 µg/mL
CCOC(=O)c1nnn(-c2cccc(NC(=O)Nc3ccc(Cl)c(Cl)c3)c2)c1C	Acinetobacter baumannii	microbial growth, broth dilution	BAA1605	–	MIC	> 64 µg/mL
COc1ccc(Nc2nn3c(-c4ccccc4)ccnc3c2C(=O)Nc2ccccc2)cc1	Caco-2	cell growth or viability, MTT	–	6.25 µg/mL, 48 h, serum-free	viability	84.2%
C[C@@H](O)[C@@H]1NC(=O)[C@H](Cc2ccccc2)NC(=O)[C@@H](Cc2ccccc2)NC(=O)[C@H]([C@@H](C)O)NC(=O)[C@@H](CCCN)NC(=O)[C@H](CCCNC(=N)N)NC(=O)[C@@H](CCCN)NC1=O	Balamuthia mandrillaris	parasite growth, ATP luminescence	–	–	IC90	> 16 µg/mL
COC(=O)c1cc(-c2cccc(NC(=S)Nc3cc(C(F)(F)F)cc(C(F)(F)F)c3)c2)on1	Acinetobacter baumannii	microbial growth, broth dilution	BAA1605	–	MIC	> 64 µg/mL
CC(C)[C@@H]1NC(=O)[C@@H](Cc2ccccc2)NC(=O)[C@H](Cc2ccccc2)NC(=O)[C@@H]([C@H](C)O)NC(=O)[C@@H](CCCNC(=N)N)NC1=O	Balamuthia mandrillaris	parasite growth, ATP luminescence	–	–	IC50	> 16 µg/mL
O=C(NNc1cc(F)ccc1F)c1nnc(C23CC4CC(CC(C4)C2)C3)o1	Pyricularia grisea	microbial growth	–	50 µg/mL	inhibition	71.6%
C[C@@H](O)[C@@H]1NC(=O)[C@H](Cc2ccccc2)NC(=O)[C@@H](Cc2ccccc2)NC(=O)[C@H]([C@@H](C)O)NC(=O)[C@@H](CCCCN)NC(=O)[C@H](CC(=O)O)NC1=O	Balamuthia mandrillaris	parasite growth, ATP luminescence	–	–	IC50	> 16 µg/mL
Nc1ncc(-c2nc(N3CCOCC3)nc(N3CCOCC3)n2)c(C(F)F)n1	CDKL5 (Homo sapiens, UniProt O76039)	binding, competition with immobilised ligand	–	10 µM	remaining binding	67%
CC(C)[C@@H]1NC(=O)[C@@H](C(C)C)NC(=O)[C@H](C)NC(=O)[C@H](CO)NC(=O)[C@H](Cc2c[nH]c3ccccc23)NC(=O)[C@@H](Cc2ccc(O)cc2)NC(=O)[C@H](CCCN)NC(=O)[C@H](Cc2c[nH]c3ccccc23)NC1=O	Balamuthia mandrillaris	parasite growth, ATP luminescence	–	–	IC50	> 16 µg/mL
Cc1nn(C)cc1-c1nc2c(N3CCN(Cc4ccc(Cl)cc4)CC3)c(Cl)cnc2[nH]1	GAK (Homo sapiens, UniProt O14976)	binding, competition with immobilised ligand	–	1 µM	remaining binding	94%

For quick reference, copied from above:
SMILES	target or system	test	system	conditions	quantity	result
CO/C=C(/C(=O)OC)c1ccccc1Oc1cc(Oc2ccccc2C#N)ncn1	Pyricularia grisea	microbial growth	–	–	EC50	> 50 µg/mL
CC(=O)N1CCN(c2ccc(OCC3COC(Cn4ccnc4)(c4ccc(Cl)cc4Cl)O3)cc2)CC1 (stereo not drawn)	Candida albicans	microbial killing, broth dilution	56214	48 h	MFC	> 64 µM
